Results gathered from unrelated publications.
Several values in a cell are separate wells, animals, samples, runs or records. Numbers after ± are the reported error. Values after ≈ are worked out from the molar mass of the structure shown.

`COc1c(CCC[P+](c2ccccc2)(c2ccccc2)c2ccccc2)cc2c(c1OC)OCO2.[I-]` has a TGI of -4.79 log M (MOLT-4; SRB).
For `CCOC(=O)C1=C[C@@H](OC(CC)CC)[C@H](NC(C)=O)[C@@H](N)C1`, the EC50 was 2170 ± 240 nM (Influenza A virus; viral replication; MDCK, A/WSN/1933 (H1N1); 48 h).
`CC(=O)OCC[N+](C)(C)C` has an EC50 of 101 nM (muscarinic M2 receptor, bullfrog; IK(ACh) current, agonist, whole-cell patch clamp; bullfrog atrial myocytes).
`Cc1ccc(NC(=O)c2sc3nc(C)cc(C(F)(F)F)c3c2N)cc1` has an IC50 of greater than 100000 nM (Mycobacterium tuberculosis; growth inhibition; H37Rv LepB under-expressing).
For `NC(=O)c1ccc(Cn2c(=S)[nH]c3ccc(Cl)cc3c2=O)cn1`, the MIC90 was 40.7 µM (≈ 14.1 µg/mL) (Mycobacterium tuberculosis; PptT conditional knockdown).
For `C[C@]12CC[C@H]3[C@@H](CC=C4CC(O)CC[C@@]43CO)[C@@H]1CCC2O` (some centres unmarked), ACTA2 upregulation read “decreased” (rat BSC hepatic stellate cells; concentration not given, with: TGFβ).
Under relaxin-stimulated cAMP, `COc1cccc(-c2cc(=O)c3ccccc3o2)c1N` is recorded as “no effect” (RXFP1; with: relaxin 10 fM).
The LC50 of `COc1cc(CCC[P+](c2ccccc2)(c2ccccc2)c2ccccc2)c(OC)c2c1OCO2.[I-]` is reported as -4.62 log M (NCI-H460; SRB).
`C[C@]1(CO)Cc2ncn(-c3ccc(C#N)c(Cl)c3)c2C(=O)O1`: plasma 11-deoxycortisol “increased” (aldosterone synthase; inhibitor; human, plasma; 40 and 80 mg, days 14 and 15, Japanese multiple ascending dose; reference: baseline).
`CCCCCn1cc(C(=O)C2C(C)(C)C2(C)C)c2ccccc21` has an ED50 of 0.6 µmol/kg (hypothermia, mouse tetrad, measured: rectal temperature; ICR mouse male; intravenous).
The serum HDL-C of `CCCCC1(CCCC)CN(c2ccccc2)c2cc(SC)c(OCC(=O)N[C@@H](C(=O)NCC(=O)O)c3ccccc3)cc2S(=O)(=O)C1` is reported as 42.1 mg/dL (measured: HDL cholesterol; human, serum; 15 mg once daily, day 11).
Under IC90, `COc1ccc(-c2cc(C(F)(F)F)c3c(N)c(C(=O)N4CC5(CCOC5)C4)sc3n2)cc1` is recorded as “inactive” (Mycobacterium tuberculosis; H37Rv wild type; 120 h).
The viability reduction of `O=C(O)c1ccc(-c2ccc(C(=O)O)cc2/N=N/c2cccc(Br)c2)cc1` is reported as 10% (Schistosoma mansoni; microscopic viability scoring; newly transformed schistosomula; 10 µM, 72 h, prescreen).
For `COc1c(C)c2c(c(O)c1C/C=C(\C)CCC(=O)O)C(=O)OC2`, the IC50 was 1070 nM (22Rv1; cell proliferation; prostate cancer).
The viability effect of `C[C@@H]1C[C@@]2(N=CCS2)[C@]2(O)O[C@@H]3C[C@@]4(C=O)[C@@H](CC[C@@H]5[C@@H]4CC[C@]4(C)[C@@H](C6=CC(=O)OC6)CC[C@]54O)C[C@H]3O[C@@H]2O1` is reported as 51% (Schistosoma mansoni; microscopic viability score; adult worms; 0.1 µM, 72 h).
The MBC50 of `CC[C@H](C)[C@H](NC(=O)[C@H](C)NC(=O)[C@H](CCCCN)NC(=O)[C@H](CC(C)C)NC(=O)[C@H](C)NC(=O)[C@@H](NC(=O)[C@H](Cc1c[nH]cn1)NC(=O)[C@H](CC(C)C)NC(=O)[C@@H](NC(=O)[C@@H](NC(=O)[C@H](CCCCN)NC(=O)[C@H](C)NC(=O)[C@H](C)NC(=O)[C@H](CO)NC(=O)[C@H](CCCCN)NC(=O)[C@H](Cc1ccccc1)NC(=O)[C@@H](NC(=O)[C@H](CCCCN)NC(=O)[C@H](CC(C)C)NC(=O)[C@H](Cc1ccccc1)NC(=O)[C@H](CO)NC(=O)[C@H](CCCCN)NC(=O)[C@H](Cc1c[nH]c2ccccc12)NC(=O)[C@H](CCCCN)NC(C)=O)[C@@H](C)O)[C@@H](C)O)C(C)C)[C@@H](C)O)C(=O)N[C@@H](CO)C(=O)N[C@@H](CO)C(N)=O` is reported as 8 µg/mL (≈ 2.73 µM) (Enterobacter aerogenes; 40 strains).
`CNC(=O)Oc1cccc2c1OC(C)(C)C2O` (centres unmarked) has an EC10 of 4710 nM (SH-SY5Y; neurite outgrowth, inhibitor; 24 h, nominal concentration).
`CN1CCN(C2(CNC3CCN(c4cccc(-c5cc6cc(F)ccc6[nH]5)c4)CC3)CCC2)CC1` has a GI50 of 1590 nM (SF-268).
With `COc1ccc(-n2nc(C(C)=O)s/c2=N\N=C(/C)c2ccc(NC(C)=O)cc2)cc1` the toxicity was 96.8% (WI-38; 1.25 µM).
`COc1ccc(-c2cc(C(F)(F)F)c3c(N)c(C(=O)N4CCCC4(C)C)sc3n2)cc1` has a selectivity index of less than 1 (Mycobacterium tuberculosis; H37Rv wild type; reference: HepG2 IC50 over M. tuberculosis IC90).
`OC(Cn1cncn1)(Cn1cncn1)c1ccc(F)cc1F` has an OD600 of 0.072 and 0.114 and 0.143 (Saccharomyces cerevisiae; cell growth; Pdr5 deleted, Cdr1 overexpressed; 2^6.644 µg/mL).
For `COc1ccc(-c2cc(C(F)(F)F)c3c(N)c(C(=O)N4CCCCC4)sc3n2)cc1`, IC90 read “inactive” (Mycobacterium tuberculosis; H37Rv wild type; 120 h).
`CC[C@H](C)[C@@H]1NC(=O)[C@@H]2CCCN2C(=O)[C@H](CC(C)C)NC(=O)[C@H](CC(C)C)NC(=O)CNC(=O)[C@@H](NC(=O)[C@@H](NC(=O)[C@H](CC(=O)O)NC(=O)CNC(=O)[C@@H](NC(=O)[C@H](C)NC(=O)CNC(=O)[C@H](CCCCN)NC(=O)[C@H](CC(C)C)NC(=O)[C@H](CC(C)C)NC(=O)[C@H](CCCCN)NC(=O)CNC(=O)[C@@H](NC(=O)[C@@H](N)CC(C)C)C(C)C)C(C)C)C(C)C)CSSC[C@@H](C(=O)O)NC1=O` — result for “log2 fold change”: -3.06 (RNA-seq, measured: Mgst2; mouse, traumatic brain injury model, frontal cortex and hippocampus; dose not given; reference: TBI alone).
`O=C1Cc2cccc3[nH]c4c(c23)C2CC(CCN12)C4` (centres unmarked) has a viability reduction of 4.2% (Schistosoma mansoni; microscopic viability scoring; newly transformed schistosomula; 10 µM, 72 h, prescreen).
`CS(=O)(=O)CCCn1c(Cn2c(=O)n(CC(F)(F)F)c3ccncc32)cc2cc(Cl)ccc21`: “LS mean difference vs placebo” 1.26 log10 copies/mL (respiratory syncytial virus; RT-qPCR; hospitalized infants 1-24 months, nasal swab; oral, 9, 6 or 5 mg/kg daily, day 6, high dose by age cohort; reference: placebo).
`Clc1ccc(-c2ccccc2Cl)cc1` gave an IC25 of 17000 nM (gap junction, rat; gap junctional communication, scrape loading dye transfer; WB-F344 rat liver epithelial; 1 h).
